# Published values pooled from the literature.
# Parts stem from different laboratories: compare values within a part only. “And” joins repeats or separate records; there may be more than shown. pIC50: −log10 of the molar value.
# Chain of UniProt Q9UQM7 (whole entry, looked up): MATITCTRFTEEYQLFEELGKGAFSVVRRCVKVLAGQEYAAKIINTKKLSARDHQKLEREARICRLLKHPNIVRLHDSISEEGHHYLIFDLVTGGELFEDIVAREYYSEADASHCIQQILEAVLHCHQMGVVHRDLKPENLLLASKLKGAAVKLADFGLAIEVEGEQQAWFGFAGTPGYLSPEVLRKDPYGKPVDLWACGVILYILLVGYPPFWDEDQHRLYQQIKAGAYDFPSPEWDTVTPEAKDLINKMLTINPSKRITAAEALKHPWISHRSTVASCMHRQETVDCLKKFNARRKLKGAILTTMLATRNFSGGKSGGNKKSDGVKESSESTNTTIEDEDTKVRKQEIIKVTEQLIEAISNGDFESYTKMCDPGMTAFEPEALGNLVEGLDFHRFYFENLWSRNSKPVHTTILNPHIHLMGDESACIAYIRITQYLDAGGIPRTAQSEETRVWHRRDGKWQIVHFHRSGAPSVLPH
# Chain of UniProt P07948 (whole entry, looked up): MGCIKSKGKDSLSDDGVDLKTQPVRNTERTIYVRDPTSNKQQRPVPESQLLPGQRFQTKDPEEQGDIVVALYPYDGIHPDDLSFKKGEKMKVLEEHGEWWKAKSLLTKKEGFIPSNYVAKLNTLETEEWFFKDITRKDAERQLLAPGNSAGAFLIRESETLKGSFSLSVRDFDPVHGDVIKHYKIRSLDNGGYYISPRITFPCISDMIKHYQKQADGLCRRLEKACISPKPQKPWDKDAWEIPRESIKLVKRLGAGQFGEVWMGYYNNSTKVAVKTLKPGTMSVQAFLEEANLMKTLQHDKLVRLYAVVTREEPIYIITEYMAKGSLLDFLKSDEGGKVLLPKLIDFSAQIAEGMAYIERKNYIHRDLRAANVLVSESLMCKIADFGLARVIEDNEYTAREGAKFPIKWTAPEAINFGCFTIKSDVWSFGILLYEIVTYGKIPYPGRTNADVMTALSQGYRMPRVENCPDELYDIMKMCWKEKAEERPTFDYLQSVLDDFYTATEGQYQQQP
# Chain of UniProt P51957 (whole entry, looked up): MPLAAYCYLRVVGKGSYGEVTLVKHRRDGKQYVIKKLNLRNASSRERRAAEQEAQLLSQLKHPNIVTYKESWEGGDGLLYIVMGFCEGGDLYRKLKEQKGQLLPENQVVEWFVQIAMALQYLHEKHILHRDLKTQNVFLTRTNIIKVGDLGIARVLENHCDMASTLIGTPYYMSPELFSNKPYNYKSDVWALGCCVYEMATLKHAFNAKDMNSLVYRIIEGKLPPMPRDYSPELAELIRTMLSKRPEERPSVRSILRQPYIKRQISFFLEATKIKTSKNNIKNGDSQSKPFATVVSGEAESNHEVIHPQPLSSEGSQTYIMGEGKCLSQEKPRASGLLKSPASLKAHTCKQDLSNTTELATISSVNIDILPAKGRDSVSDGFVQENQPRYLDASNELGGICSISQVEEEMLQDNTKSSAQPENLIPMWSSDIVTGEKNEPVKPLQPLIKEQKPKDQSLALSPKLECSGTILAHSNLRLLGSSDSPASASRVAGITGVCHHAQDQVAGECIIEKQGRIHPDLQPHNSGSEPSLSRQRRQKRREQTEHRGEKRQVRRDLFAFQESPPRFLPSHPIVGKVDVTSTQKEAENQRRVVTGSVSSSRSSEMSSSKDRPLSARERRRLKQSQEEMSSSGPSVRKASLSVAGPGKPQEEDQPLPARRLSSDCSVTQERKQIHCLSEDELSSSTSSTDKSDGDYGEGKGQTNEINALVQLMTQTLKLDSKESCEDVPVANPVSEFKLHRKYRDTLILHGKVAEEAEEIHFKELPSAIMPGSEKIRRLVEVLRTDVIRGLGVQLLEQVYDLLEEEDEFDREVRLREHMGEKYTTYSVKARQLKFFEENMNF
# Chain of UniProt P60842 (whole entry, looked up): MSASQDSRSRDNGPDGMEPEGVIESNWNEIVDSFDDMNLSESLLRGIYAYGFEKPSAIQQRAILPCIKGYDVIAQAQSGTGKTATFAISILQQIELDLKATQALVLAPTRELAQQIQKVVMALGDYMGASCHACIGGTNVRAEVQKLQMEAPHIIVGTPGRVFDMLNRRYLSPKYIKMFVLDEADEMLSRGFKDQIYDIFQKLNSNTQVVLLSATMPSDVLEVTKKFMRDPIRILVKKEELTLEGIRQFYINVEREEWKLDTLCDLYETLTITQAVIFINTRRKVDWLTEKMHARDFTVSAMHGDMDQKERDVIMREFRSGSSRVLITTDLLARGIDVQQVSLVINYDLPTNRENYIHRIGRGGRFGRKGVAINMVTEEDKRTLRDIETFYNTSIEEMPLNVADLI
# Chain of UniProt Q9HBH9 (whole entry, looked up): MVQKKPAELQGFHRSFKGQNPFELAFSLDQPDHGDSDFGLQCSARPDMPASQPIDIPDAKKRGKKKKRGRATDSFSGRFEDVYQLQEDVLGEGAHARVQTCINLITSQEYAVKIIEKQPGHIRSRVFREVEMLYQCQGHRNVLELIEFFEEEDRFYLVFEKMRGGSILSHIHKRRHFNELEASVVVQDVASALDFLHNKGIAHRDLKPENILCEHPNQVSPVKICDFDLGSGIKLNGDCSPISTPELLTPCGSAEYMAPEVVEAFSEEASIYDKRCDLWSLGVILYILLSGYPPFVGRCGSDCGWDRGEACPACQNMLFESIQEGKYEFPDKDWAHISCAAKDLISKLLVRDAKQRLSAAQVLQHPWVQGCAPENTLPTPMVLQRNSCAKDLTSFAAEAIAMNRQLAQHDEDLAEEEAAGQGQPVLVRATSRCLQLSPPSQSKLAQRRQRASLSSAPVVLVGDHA
# Chain of UniProt Q12851 (whole entry, looked up): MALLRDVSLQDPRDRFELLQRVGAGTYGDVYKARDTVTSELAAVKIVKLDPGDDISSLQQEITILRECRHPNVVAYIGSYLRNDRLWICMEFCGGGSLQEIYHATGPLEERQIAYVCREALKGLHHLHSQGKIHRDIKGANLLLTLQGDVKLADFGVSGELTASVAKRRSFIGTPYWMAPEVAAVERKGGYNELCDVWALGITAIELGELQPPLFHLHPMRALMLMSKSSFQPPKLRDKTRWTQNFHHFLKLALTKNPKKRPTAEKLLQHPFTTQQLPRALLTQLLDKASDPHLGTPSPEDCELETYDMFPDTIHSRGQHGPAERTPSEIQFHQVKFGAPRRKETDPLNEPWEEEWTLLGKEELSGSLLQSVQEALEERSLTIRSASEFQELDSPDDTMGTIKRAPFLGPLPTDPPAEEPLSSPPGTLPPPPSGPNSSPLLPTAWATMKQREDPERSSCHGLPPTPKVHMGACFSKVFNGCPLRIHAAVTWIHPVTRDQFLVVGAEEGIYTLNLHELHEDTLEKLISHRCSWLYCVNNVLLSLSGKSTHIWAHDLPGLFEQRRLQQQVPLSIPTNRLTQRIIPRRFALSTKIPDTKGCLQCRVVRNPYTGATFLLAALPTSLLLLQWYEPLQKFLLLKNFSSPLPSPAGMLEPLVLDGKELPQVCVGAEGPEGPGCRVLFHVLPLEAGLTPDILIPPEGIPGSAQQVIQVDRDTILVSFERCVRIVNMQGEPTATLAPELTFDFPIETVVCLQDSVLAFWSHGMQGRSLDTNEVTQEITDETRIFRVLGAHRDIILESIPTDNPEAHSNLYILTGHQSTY
# Chain of UniProt Q9NWZ3 (whole entry, looked up): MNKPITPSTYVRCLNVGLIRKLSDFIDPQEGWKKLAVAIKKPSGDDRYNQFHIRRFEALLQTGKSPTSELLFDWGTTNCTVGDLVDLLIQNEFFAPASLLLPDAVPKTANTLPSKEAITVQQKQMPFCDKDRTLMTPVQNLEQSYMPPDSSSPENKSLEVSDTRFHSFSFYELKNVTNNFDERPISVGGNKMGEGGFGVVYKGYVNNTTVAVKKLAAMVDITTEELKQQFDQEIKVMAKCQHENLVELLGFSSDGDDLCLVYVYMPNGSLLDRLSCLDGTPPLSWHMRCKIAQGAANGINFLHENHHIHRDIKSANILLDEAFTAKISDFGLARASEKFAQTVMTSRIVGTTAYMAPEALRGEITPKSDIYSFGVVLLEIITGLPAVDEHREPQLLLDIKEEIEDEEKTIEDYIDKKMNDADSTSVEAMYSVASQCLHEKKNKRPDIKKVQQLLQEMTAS

# Set 1
# Organism: Plasmodium berghei
# Cells: Huh-7
# Strain: liver stage
# Tested at: 10 µM
# Time: 24 h
# Reference: control
Structure (SMILES),parasite load [%]
O=C1CN=C(c2ccccc2Cl)c2cc([N+](=O)[O-])ccc2N1,90.4
CC[N+](C)(C)c1cccc(O)c1,113
C[C@@H]1C[C@H]2[C@@H]3C[C@H](F)C4=CC(=O)C=C[C@]4(C)[C@@]3(F)[C@@H](O)C[C@]2(C)[C@@]1(O)C(=O)COC(=O)C(C)(C)C,110
CCN1C[C@]2(COC)[C@H](O)C[C@H](OC)[C@@]34[C@@H]5C[C@@]6(O)[C@H](OC(=O)c7ccccc7)[C@@H]5[C@@](OC(C)=O)([C@@H]([C@H](OC)[C@H]23)[C@@H]14)[C@@H](O)[C@@H]6OC,99.8
COc1ccc2c3c1O[C@H]1C[C@@H](O)C=C[C@@]31CCN(C)C2,91.3
C=CCN1CC[C@]23c4c5ccc(O)c4O[C@H]2C(=O)CC[C@@]3(O)[C@H]1C5,85.7
Oc1ccc2c3c1O[C@H]1[C@@H](O)CC[C@@]4(O)[C@@H](C2)N(CC2CCC2)CC[C@]314,112
COc1cc2c3cc1Oc1cc(ccc1O)C[C@@H]1c4c(cc(OC)c(O)c4Oc4ccc(cc4)C[C@@H]3N(C)CC2)CC[N+]1(C)C,79.2

# Set 2
# Structure (SMILES): O=C1NC(=O)c2c1c1c3ccccc3n3c1c1c2c2ccccc2n1[C@H]1CC[C@@H]3O1
# Read-out: enzyme activity
# Action: inhibitor
# Tested at: 0.5 µM
# Reference: control
target,remaining activity [%]
"cGMP-dependent protein kinase 1 (PRKG1, Homo sapiens, UniProt Q13976)",35.7
"Mitogen-activated protein kinase kinase kinase 10 (MAP3K10, Homo sapiens, UniProt Q02779)",2.66
"Mast/stem cell growth factor receptor Kit (KIT, Homo sapiens, UniProt P10721)",60.8
"RAC-gamma serine/threonine-protein kinase (AKT3, Homo sapiens, UniProt Q9Y243)",27.1
"Casein kinase II subunit alpha (CSNK2A1, Homo sapiens, UniProt P68400)",16.7
"MAP kinase-interacting serine/threonine-protein kinase 2 (MKNK2, Homo sapiens, UniProt Q9HBH9)",9.71
"Serine/threonine-protein kinase Nek4 (NEK4, Homo sapiens, UniProt P51957)",22
"Tyrosine-protein kinase Lyn (LYN, Homo sapiens, UniProt P07948)",35.4
"Casein kinase I isoform alpha (CSNK1A1, Homo sapiens, UniProt P48729)",104
"Serine/threonine-protein kinase WNK2 (WNK2, Homo sapiens, UniProt Q9Y3S1)",93.6
"Ephrin type-A receptor 5 (EPHA5, Homo sapiens, UniProt P54756)",78.7
"Serine/threonine-protein kinase 38 (STK38, Homo sapiens, UniProt Q15208)",46.2
"Serine/threonine-protein kinase Chk1 (CHEK1, Homo sapiens, UniProt O14757)",3.63
"Serine/threonine-protein kinase PLK2 (PLK2, Homo sapiens, UniProt Q9NYY3)",62.4
"Tyrosine-protein kinase BTK (BTK, Homo sapiens, UniProt Q06187)",43.3
"Protein kinase C delta type (PRKCD, Homo sapiens, UniProt Q05655)",19
"Cyclin-dependent kinase 9, with cyclin T1 (CDK9, Homo sapiens, UniProt P50750)",8.52
"Leucine-rich repeat serine/threonine-protein kinase 2 (LRRK2, Homo sapiens, UniProt Q5S007)",1.91
"Protein kinase C iota type (PRKCI, Homo sapiens, UniProt P41743)",86.4
"Mitogen-activated protein kinase 13 (MAPK13, Homo sapiens, UniProt O15264)",114
"Dual specificity mitogen-activated protein kinase kinase 6 (MAP2K6, Homo sapiens, UniProt P52564)",19.3
"Mitogen-activated protein kinase kinase kinase kinase 2 (MAP4K2, Homo sapiens, UniProt Q12851)",3.75
"Interleukin-1 receptor-associated kinase 4 (IRAK4, Homo sapiens, UniProt Q9NWZ3)",14
"Mitogen-activated protein kinase 12 (MAPK12, Homo sapiens, UniProt P53778)",113

# Set 3
# Target: UDP-N-acetylglucosamine--peptide N-acetylglucosaminyltransferase 110 kDa subunit (OGT, Homo sapiens, UniProt O15294)
# Chain of UniProt O15294 (whole entry, looked up): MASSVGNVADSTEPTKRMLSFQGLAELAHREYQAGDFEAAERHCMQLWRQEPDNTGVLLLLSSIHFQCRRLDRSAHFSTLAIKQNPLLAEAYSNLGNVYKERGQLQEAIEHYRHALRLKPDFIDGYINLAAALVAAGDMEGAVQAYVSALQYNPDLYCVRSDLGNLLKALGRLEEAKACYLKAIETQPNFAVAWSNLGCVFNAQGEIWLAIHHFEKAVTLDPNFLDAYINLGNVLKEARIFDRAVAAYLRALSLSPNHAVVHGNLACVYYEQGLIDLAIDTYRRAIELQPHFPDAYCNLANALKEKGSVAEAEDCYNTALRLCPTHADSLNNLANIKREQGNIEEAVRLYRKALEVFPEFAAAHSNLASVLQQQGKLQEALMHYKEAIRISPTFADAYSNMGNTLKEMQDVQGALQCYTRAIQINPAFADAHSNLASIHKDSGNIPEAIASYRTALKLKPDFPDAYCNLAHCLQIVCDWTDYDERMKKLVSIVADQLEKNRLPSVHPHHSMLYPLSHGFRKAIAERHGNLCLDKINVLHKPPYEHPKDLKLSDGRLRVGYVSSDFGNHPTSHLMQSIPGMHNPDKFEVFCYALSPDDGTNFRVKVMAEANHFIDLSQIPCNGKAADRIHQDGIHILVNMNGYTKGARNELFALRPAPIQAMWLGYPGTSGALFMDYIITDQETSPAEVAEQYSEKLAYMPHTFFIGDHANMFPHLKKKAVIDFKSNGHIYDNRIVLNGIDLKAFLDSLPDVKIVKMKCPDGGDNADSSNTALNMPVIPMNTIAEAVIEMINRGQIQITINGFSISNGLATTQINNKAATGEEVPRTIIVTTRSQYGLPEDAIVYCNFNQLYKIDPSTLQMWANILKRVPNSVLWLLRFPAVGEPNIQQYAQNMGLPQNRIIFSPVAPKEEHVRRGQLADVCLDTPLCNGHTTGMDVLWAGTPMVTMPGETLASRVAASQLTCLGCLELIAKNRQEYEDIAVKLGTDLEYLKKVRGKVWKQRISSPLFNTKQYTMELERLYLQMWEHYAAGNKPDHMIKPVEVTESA
# Read-out: binding
# Method: phage display NGS
# Molecule type: peptide
# Notes: panning round 2
# Reference: input library
Sequence,minimum log2 enrichment ratio
QNQPRYFPAYQIVAQ,2.64
SPWHHMHHHPTDSVA,2.24
HPHPPHPHGFDTHHV,3.4
QQDIYPPHYLIELDI,2.59
DTRWVPSYQIKYSYM,2.35
NDMFAPKYQLTWREF,5.37
HPHNMMQHHGNRFDM,2.82
QKPMLFLPQYIIVAN,6.44

# Set 4
# Cell line: mouse MPNST tumor cells
# Method: high-content nuclear imaging
# Measured: cell number
# Tested at: 10 µM
# Time: 12 h
# Notes: mean of 2 replicates
# Reference: plate mean
# Direction: higher = more cells
SMILES,nuclei count
CNCC(O)c1ccc(O)cc1 (racemic),-0.304 z-score
CN(C)C(=O)Oc1cccc([N+](C)(C)C)c1,1.24 z-score
CC(Cc1ccc(O)cc1)NCC(O)c1cc(O)cc(O)c1 (stereo not drawn),0.927 z-score
CC(O)(CS(=O)(=O)c1ccc(F)cc1)C(=O)Nc1ccc(C#N)c(C(F)(F)F)c1 (stereo not drawn),1.76 z-score and 3.36 z-score and 1.92 z-score
CCCCCOc1c(OC)ccc2cc(C(=O)NCc3ccc4c(c3)OCO4)c(=O)[nH]c12,0.743 z-score
O=C(O)C(=O)c1cn(Cc2ccccc2)c2ccc(-c3ccc(OC(F)(F)F)cc3)cc12,1.45 z-score
CC(C)c1cccc(C(C)C)c1O,2.18 z-score

# Further values, each from its own experiment
# BRD4 BD1: Bromodomain-containing protein 4, BD1 (BRD4, Homo sapiens, UniProt O60885)
Compound,target or system,assay,system,setting,quantity,value
COc1ccc2c(c1)O[C@H](c1ccc(OC)c(OC)c1)C[C@@H]2NC(=O)C1(c2ccc3c(c2)OC(F)(F)O3)CC1,"Muscarinic acetylcholine receptor M1 (CHRM1, Homo sapiens, UniProt P11229)",cell-free assay,,10 µM,inhibition,-12.4%
CC1(C)COC(=O)[C@@H]1O,"Calcium/calmodulin-dependent protein kinase type II subunit alpha (CAMK2A, Homo sapiens, UniProt Q9UQM7)","enzyme activity, inhibitor",,10 µM,inhibition,40%
CC(C)n1cnc(-c2ccc(F)cc2)c1-c1ncc(C(=O)Nc2ccc(N3CCN(C)CC3)cc2)[nH]1,,,"human, idiopathic pulmonary fibrosis","30 mg once daily, trial, treatment-emergent",patients with influenza-like illness,0%
CN1C(=O)C(=CNc2ccc(Cl)cc2)C(=O)NC1=S,BRD4 BD1,"acetyl-histone H4 peptide binding, AlphaScreen displacement",,50 µM,inhibition,13.6%
CN(C)C(=O)C(CCN1CCC(O)(c2ccc(Cl)cc2)CC1)(c1ccccc1)c1ccccc1,"Synaptic vesicular amine transporter (SLC18A2, Homo sapiens, UniProt Q05940)","transporter inhibition, inhibitor",,,pIC50,6.80
Cc1cccc(N2C(=O)NC(=O)C(=CNc3ccc4c(c3)OCO4)C2=O)c1,BRD4 BD1,"acetyl-histone H4 peptide binding, AlphaScreen displacement",,50 µM,inhibition,14.7%
COc1ccc([C@@]23Oc4cc(OC)cc(OC)c4[C@]2(O)[C@H](O)[C@H](C(=O)N(C)OC)[C@H]3c2ccccc2)cc1,"Eukaryotic initiation factor 4A-I (EIF4A1, Homo sapiens, UniProt P60842)","RNA clamping, fluorescence polarization",,"concentration not given, with: FAM-labelled poly r(AG)8 RNA",fluorescence polarization change,16.1 mP

# Excerpt of the above (set 4):
SMILES,nuclei count
CN(C)C(=O)Oc1cccc([N+](C)(C)C)c1,1.24 z-score
CC(Cc1ccc(O)cc1)NCC(O)c1cc(O)cc(O)c1 (stereo not drawn),0.927 z-score
CC(O)(CS(=O)(=O)c1ccc(F)cc1)C(=O)Nc1ccc(C#N)c(C(F)(F)F)c1 (stereo not drawn),1.76 z-score and 3.36 z-score and 1.92 z-score
CCCCCOc1c(OC)ccc2cc(C(=O)NCc3ccc4c(c3)OCO4)c(=O)[nH]c12,0.743 z-score
O=C(O)C(=O)c1cn(Cc2ccccc2)c2ccc(-c3ccc(OC(F)(F)F)cc3)cc12,1.45 z-score
